Published values gathered from unrelated publications.
Lines come from different studies, so protocols differ. ± gives the spread as reported.

Substance	cell line	test	test system	conditions	how to read	measurement	result
NHTKKWKYPQVNGLT	human CD4 T cells	AIM	peptide			responding donors	9%
CC[C@H](C)[C@@H]([C@@H](CC(=O)N1CCC[C@H]1[C@H](OC)[C@@H](C)C(=O)N[C@H](C)[C@@H](O)c1ccccc1)OC)N(C)C(=O)[C@@H](NC(=O)[C@@H](NC)C(C)C)C(C)C	PBMC	cytotoxicity				IC50	98.2 nM
PLIELCVDEAGSKSP	human CD4 T cells	AIM	peptide			responding donors	18%
O=C1CCC(N2C(=O)c3cccc4c(Cc5cnn(C6CCNCC6)c5)ccc2c34)C(=O)N1 (stereo not drawn)	NCI-H929	cell proliferation		72 h		IC50	0.467 nM
CC(C)C[C@H](NC(=O)[C@H](CC(=O)O)NC(=O)CNC(=O)[C@H](CCCNC(=N)N)NC(=O)[C@H](CC(C)C)NC(=O)[C@H](CC(N)=O)NC(=O)[C@@H]1CCCN1C(=O)[C@@H](NC(=O)[C@H](C)NC(=O)[C@H](CC(N)=O)NC(=O)CCOCCOCCOCCOCCOCCOCCOCCOCCOCCOCCOCCOCCOCCOCCOCCOCCOCCOCCOCCOCCOCCOCCOCCOCCOCCOCCOCCOCCNC(=O)CCOCCOCCOCCOCCOCCOCCOCCOCCOCCOCCOCCOCCOCCOCCOCCOCCOCCOCCOCCOCCOCCOCCOCCOCCOCCOCCOCCOCCNC(=O)c1ccc(F)cc1)C(C)C)C(=O)N[C@@H](CCC(N)=O)C(=O)N[C@H](C(=O)N[C@@H](CC(C)C)C(=O)N[C@@H](C)C(=O)N[C@@H](CCC(N)=O)C(=O)N[C@@H](CCCCN)C(=O)N[C@H](C(=O)N[C@@H](C)C(=O)N[C@@H](CCCNC(=N)N)C(=O)N[C@H](C(N)=O)[C@@H](C)O)C(C)C)C(C)C [fluorine-18 labelled]	DX3puroβ6			concentration not given, 1 h, pH 7.2, serum-free medium		cell-bound radioactivity	38.5 ± 1.7%
CN(C)CCCN1c2ccccc2Sc2ccc(Cl)cc21	A2780	cell growth or viability, neutral red		dark		IC50	194000 nM
C[C@@H]1O[C@@H](O[C@H]2CC[C@]3(C=O)[C@H]4CC[C@]5(C)[C@@H](C6=CC(=O)OC6)CC[C@]5(O)[C@@H]4CC[C@]3(O)C2)[C@H](O)[C@H](O)[C@H]1O	MYBPC3 iPSC cardiomyocytes	plate-normalised		concentration not given, 24 h, hit retest		MyBP-C level	9.2%
COc1cc2cc(c1Cl)N(C)C(=O)C[C@H](OC(=O)[C@H](C)N(C)C(=O)CCS)[C@]1(C)O[C@H]1[C@H](C)[C@@H]1C[C@@](O)(NC(=O)O1)[C@H](OC)/C=C/C=C(\C)C2	NCI-H929	cell proliferation		72 h		IC50	0.842 nM
CCOP(=O)(OCC)Oc1ccc([N+](=O)[O-])cc1	THP-1 macrophages	2-AG and PG-G hydrolysis, inhibitor		30 min pretreatment		lowest effective concentration	100 nM
LLWPVTLACFVLAAV	human CD4 T cells	AIM	peptide			responding donors	17%
Nc1cccc2c1CN(C1CCC(=O)NC1=O)C2=O (stereo not drawn)	NCI-H929	cell proliferation		72 h		IC50	68 nM
CCOP(=S)(OCC)Oc1nc(Cl)c(Cl)cc1Cl	ES-D3	cardiomyocyte differentiation, embryonic stem cell test		day 10, exposure from day 3	50% inhibition of beating	ID50	117000 nM
CCc1c2c(nc3ccc(O)cc13)-c1cc3c(c(=O)n1C2)COC(=O)[C@]3(O)CC	NCI-H929	cell proliferation		72 h		IC50	2.93 nM
Kaliotoxin	human iPSC-derived microglia	cytokine release, ELISA		2 µM, together with: LPS		TNF-alpha release	no effect
C[C@H]1O[C@@H](O[C@H]2[C@@H](O)C[C@H](O[C@H]3[C@@H](O)C[C@H](O[C@H]4CC[C@@]5(C)[C@H](CC[C@@H]6[C@@H]5CC[C@]5(C)[C@@H](C7=CC(=O)OC7)[C@@H](O)C[C@]65O)C4)O[C@@H]3C)O[C@@H]2C)C[C@H](O)[C@@H]1O	human iPSC-derived cardiomyocytes	MyBP-C/MYH ratio, plate-normalised SD score		concentration not given, primary screen	direction not given	activity score	6.6
CC[C@@]1(O)C(=O)OCc2c1cc1n(c2=O)Cc2c-1nc1cc(F)c(C)c3c1c2[C@@H](NC(=O)CO)CC3	PBMC	cytotoxicity				IC50	25.6 nM
CC[C@H](C)[C@H]1C(=O)N2CCC[C@H]2C(=O)O[C@H](C(C)(C)C)C[C@@H](C)C[C@H](O)[C@H](C)C2=N[C@@H](CCC(=O)N[C@@H](Cc3ccc(OC)cc3)C(=O)N(C)[C@@H](C)C(=O)N1C)CS2	RAW264.7	cytokine secretion		concentration not given, 4 h preincubation, of 48 cytokines tested, together with: LPS 1 µg/mL for 8 h		number of affected cytokines	43
AVITREVGFVVPGLP	human CD4 T cells	AIM	peptide			responding donors	9%
CC(C)C[C@H](NC(=O)[C@H](CC(=O)O)NC(=O)CNC(=O)[C@H](CCCNC(=N)N)NC(=O)[C@H](CC(C)C)NC(=O)[C@H](CC(N)=O)NC(=O)[C@@H]1CCCN1C(=O)[C@@H](NC(=O)[C@H](C)NC(=O)[C@H](CC(N)=O)NC(=O)c1ccc(F)cc1)C(C)C)C(=O)N[C@@H](CCC(N)=O)C(=O)N[C@H](C(=O)N[C@@H](CC(C)C)C(=O)N[C@@H](C)C(=O)N[C@@H](CCC(N)=O)C(=O)N[C@@H](CCCCN)C(=O)N[C@H](C(=O)N[C@@H](C)C(=O)N[C@@H](CCCNC(=N)N)C(=O)N[C@H](C(N)=O)[C@@H](C)O)C(C)C)C(C)C [fluorine-18 labelled]	BxPC-3			concentration not given, 1 h, pH 7.2, serum-free medium		cell-bound radioactivity	9.7 ± 1.2%
FPRGQGVPINTNSSP	human CD4 T cells	AIM	peptide			responding donors	8%
CC[C@H](C)[C@H](NC(=O)[C@H](CC(C)C)NC(=O)[C@H](CO)NC(=O)[C@H](Cc1c[nH]cn1)NC(=O)[C@@H](NC(=O)[C@H](CC(C)C)NC(=O)[C@H](CO)NC(=O)[C@@H](NC(=O)[C@H](Cc1ccc(O)cc1)NC(=O)[C@H](CC(N)=O)NC(=O)[C@H](CC(N)=O)NC(=O)[C@@H](NC(=O)[C@H](CCC(=O)O)NC(=O)[C@H](CCCNC(=N)N)NC(=O)[C@H](CC(=O)O)NC(=O)[C@H](Cc1c[nH]c2ccccc12)NC(=O)[C@H](CCC(=O)O)NC(=O)[C@H](CCSC)NC(=O)[C@H](Cc1c[nH]c2ccccc12)NC(C)=O)[C@@H](C)CC)[C@@H](C)O)[C@@H](C)CC)C(=O)N[C@@H](CCC(=O)O)C(=O)N[C@@H](CCC(=O)O)C(=O)N[C@@H](CO)C(=O)N[C@@H](CCC(N)=O)C(=O)N[C@@H](CC(N)=O)C(=O)N[C@@H](CCC(N)=O)C(=O)N[C@@H](CCC(N)=O)C(=O)N[C@@H](CCC(=O)O)C(=O)N[C@@H](CCCCN)C(=O)N[C@@H](CC(N)=O)C(=O)N[C@@H](CCC(=O)O)C(=O)N[C@@H](CCC(N)=O)C(=O)N[C@@H](CCC(=O)O)C(=O)N[C@@H](CC(C)C)C(=O)N[C@@H](CC(C)C)C(=O)NCC(=O)N[C@@H](CO)C(=O)NCC(=O)N[C@@H](CSCC(=O)O[C@H]1CC[C@@]2(C)C(=CC[C@H]3[C@@H]4CC[C@H]([C@H](C)CCCC(C)(C)O)[C@@]4(C)CC[C@@H]32)C1)C(N)=O	human PBMCs	membrane binding, di-8-ANEPPS dipole potential				Kd	250 ± 20 nM
QYGDCLGDIAARDLI	human CD4 T cells	AIM	peptide			responding donors	8%
O=C1CCC(N2C(=O)c3cccc4c(Cc5cnn(C6CCN(C(=O)C7(O)CCC7)CC6)c5)ccc2c34)C(=O)N1 (stereo not drawn)	NCI-H929	cell proliferation		72 h		IC50	0.007 nM
YFTSDYYQLYSTQLS	human CD4 T cells	AIM	peptide			responding donors	8%
C[C@]12CC[C@H](O)C[C@H]1CC[C@@H]1[C@@H]2CC[C@]2(C)[C@@H](C3=CC(=O)OC3)CC[C@]12O	MDA-MB-231	cell migration, scratch wound				IC50	260 nM
QPYRVVVLSFELLHA	human CD4 T cells	AIM	peptide			responding donors	7%
CN(C)CC[C@H](CSc1ccccc1)Nc1ccc(S(=O)(=O)NC(=O)c2ccc(N3CCN(Cc4ccccc4-c4ccc(Cl)cc4)CC3)cc2)cc1[N+](=O)[O-]	HMEC			5 µM, pre-treatment, together with: ER stress inducers (brefeldin A, tunicamycin)		apoptosis	inhibited

Excerpt of the above:
Substance	cell line	test	test system	conditions	how to read	measurement	result
FPRGQGVPINTNSSP	human CD4 T cells	AIM	peptide			responding donors	8%
CC[C@H](C)[C@H](NC(=O)[C@H](CC(C)C)NC(=O)[C@H](CO)NC(=O)[C@H](Cc1c[nH]cn1)NC(=O)[C@@H](NC(=O)[C@H](CC(C)C)NC(=O)[C@H](CO)NC(=O)[C@@H](NC(=O)[C@H](Cc1ccc(O)cc1)NC(=O)[C@H](CC(N)=O)NC(=O)[C@H](CC(N)=O)NC(=O)[C@@H](NC(=O)[C@H](CCC(=O)O)NC(=O)[C@H](CCCNC(=N)N)NC(=O)[C@H](CC(=O)O)NC(=O)[C@H](Cc1c[nH]c2ccccc12)NC(=O)[C@H](CCC(=O)O)NC(=O)[C@H](CCSC)NC(=O)[C@H](Cc1c[nH]c2ccccc12)NC(C)=O)[C@@H](C)CC)[C@@H](C)O)[C@@H](C)CC)C(=O)N[C@@H](CCC(=O)O)C(=O)N[C@@H](CCC(=O)O)C(=O)N[C@@H](CO)C(=O)N[C@@H](CCC(N)=O)C(=O)N[C@@H](CC(N)=O)C(=O)N[C@@H](CCC(N)=O)C(=O)N[C@@H](CCC(N)=O)C(=O)N[C@@H](CCC(=O)O)C(=O)N[C@@H](CCCCN)C(=O)N[C@@H](CC(N)=O)C(=O)N[C@@H](CCC(=O)O)C(=O)N[C@@H](CCC(N)=O)C(=O)N[C@@H](CCC(=O)O)C(=O)N[C@@H](CC(C)C)C(=O)N[C@@H](CC(C)C)C(=O)NCC(=O)N[C@@H](CO)C(=O)NCC(=O)N[C@@H](CSCC(=O)O[C@H]1CC[C@@]2(C)C(=CC[C@H]3[C@@H]4CC[C@H]([C@H](C)CCCC(C)(C)O)[C@@]4(C)CC[C@@H]32)C1)C(N)=O	human PBMCs	membrane binding, di-8-ANEPPS dipole potential				Kd	250 ± 20 nM
QYGDCLGDIAARDLI	human CD4 T cells	AIM	peptide			responding donors	8%
O=C1CCC(N2C(=O)c3cccc4c(Cc5cnn(C6CCN(C(=O)C7(O)CCC7)CC6)c5)ccc2c34)C(=O)N1 (stereo not drawn)	NCI-H929	cell proliferation		72 h		IC50	0.007 nM
